Measured values gathered from unrelated publications.
Protocols differ between the studies behind these lines. Several values in a cell are separate wells, animals, samples, runs or records. ± marks the error that the study gave. Values after ≈ are worked out from the molar mass of the structure shown.

`Cc1ncsc1-c1ccc(C(C)NC(=O)C2CC(O)CN2C(=O)C(NC(=O)CCCCCCCCCCN2CCCC(Nc3ncc(Cl)c(Nc4ccccc4S(=O)(=O)C(C)C)n3)C2)C(C)(C)C)cc1` (stereo not shown) — result for “log2 fold change”: -1.69 (22Rv1; RNA-seq, refers to: ZFPM1 mRNA; concentration not given; reference: DMSO).
Under “log2 fold change”, `c1ccc(-c2n[nH]cc2-c2ccnc3ccccc23)nc1` is recorded as 1.78 (RAD53 (Candida albicans); kinase binding, MIB/MS competition; Candida albicans lysate; 10 µM; reference: DMSO).
`Cc1cc(OCCOCCn2ccnc2)cc(C(C)C)c1` has a larval motion of 7.8 ± 1.6 pixels/frame (zebrafish larvae, 7 dpf; 10 µM, minute 2).
The MIC50 of `C=C(NC(=O)c1csc(-c2nc3c(cc2O)-c2nc(cs2)C(=O)NC(C(C)O)C(=O)NC(=C(C)OC)c2nc(cs2)C(=O)NC2c4nc(cs4)C(=O)NC(COC(=O)c4c5c6c(cccc6n4O)COC(=O)C(OC4CC(C)(O)C(N(C)C)C(C)O4)C2OC5)c2nc-3cs2)n1)C(N)=O` (stereo not shown) is reported as 7.8 ng/mL (≈ 5.43 nM) (Streptococcus pyogenes; 10 isolates; pH 5.5).
Under “percent of control”, `C=CC(=O)Nc1cccc(Cn2ncc3cnc(Nc4cnn(CCOC)c4)nc32)c1` is recorded as 35% (FGR human; binding, KINOMEscan; 100 nM; lower = stronger binding).
For `CCN(CC)CC(=O)Nc1cccc(-n2cc(-c3ccc4ccc(-c5cn(-c6cccc(NC(=O)CN(CC)CC)c6)nn5)cc4c3)nn2)c1`, the fold regulation was -1.37 (RCC4; PCR angiogenesis array, refers to: ANGPT2; 5 x IC50, 4 h, normoxia; reference: untreated).
Under “log2 fold change”, `COC1CN([C@H]2CC[C@H]([C@@]3(C)Oc4c(Cl)cc(C(=O)NCc5c(SC)cc(C)[nH]c5=O)c(C)c4O3)CC2)C1` is recorded as 1.59 (RNA-seq, refers to: MAK mouse homolog; mouse, HT-1376 xenograft, whole blood; dose not given; reference: vehicle).
`CCN(C(=O)c1cc(F)ccc1Oc1nncnc1N1CCC2(C1)CN([C@H](CCCN(C)CCOC)C(C)C)C2)C(C)C` has a GI50 of > 10000 nM (JIMT-1; cell growth or viability; 72 h).
For `Nc1ncc(-c2cc(-c3cnn(CC(F)(F)F)c3)ncc2F)nc1C(=O)NC1CNCC(F)C1` (stereo not shown), the remaining binding was 91% (CDKL3; KINOMEscan; 1 µM; reference: DMSO control).
`CNS(=O)(=O)Nc1nccc(Cc2c(C)c3ccc(Oc4ncccc4F)cc3oc2=O)c1F` gave an IC50 of > 1000 nM (OCUG-1; cell viability; 7 days).
For `Cc1cc(NC(=O)CCN2CCCCC2)ccc1Br`, the larval motion was 17.3 ± 2.1 pixels/frame (zebrafish larvae, 7 dpf; 10 µM, minute 2).
Under “log2 fold change”, `Cn1ncc2cc(-c3cncc(Cl)c3N3CCC4(CCNC4=O)CC3)ccc21` is recorded as 2.92 (LS174T; gene expression, microarray, refers to: EMP1 mRNA; concentration not given, 4 h; reference: untreated cells).
Under “log2 fold change”, `CN1CCCNC(=O)c2cccc(c2)C(=O)NCCCN(C)CCCNc2cccc3c2C(=O)c2cccc(c2C3=O)NCCC1` is recorded as 0.433 (SAS; RNA-Seq, refers to: TXNRD1 mRNA; 1 µM, 6 h; reference: untreated cells).
With `C=CC(=O)N1[C@@H](c2ccc3c(c2)OCO3)c2[nH]c3ccccc3c2C[C@H]1C(=O)N1CCN(C)CC1` the relative co-enrichment was 144% (human cyclin E1 N112C-3xFLAG:CDK2; co-IP with TMT proteomics, refers to: CDKN1A; concentration not given, P38936; reference: wild type DMSO).
`CN(C)C(=O)c1ccnc(N2Cc3cn(Cc4ccc(F)cc4F)nc3C2)n1` gave a paired-pulse ratio of 1.39 and 1.33 and 1.26 and 1.75 and 1.24 and 1.46 (mouse, hippocampal slice, Schaffer collaterals; dose not given, interstimulus interval 200; reference: second over first response).
`CC(C)c1ccc(N(C)c2ccc3c(c2)OCC[C@H]3CNc2cnccc2C(=O)O)cc1` gave an IC50 of 3.21 nM (Namalwa; cell growth, CellTiter-Glo; 7 days).
